Results from different studies.
Every numbered part comes from another study and shows a few of its results, in no order. Changes are numbered by the printed parent chain.

Block 1
Target: Sal-like protein 4, full length isoform A (SALL4, Homo sapiens, UniProt Q9UJQ4, residues 1-1053)
Sequence of UniProt Q9UJQ4 (whole entry, looked up): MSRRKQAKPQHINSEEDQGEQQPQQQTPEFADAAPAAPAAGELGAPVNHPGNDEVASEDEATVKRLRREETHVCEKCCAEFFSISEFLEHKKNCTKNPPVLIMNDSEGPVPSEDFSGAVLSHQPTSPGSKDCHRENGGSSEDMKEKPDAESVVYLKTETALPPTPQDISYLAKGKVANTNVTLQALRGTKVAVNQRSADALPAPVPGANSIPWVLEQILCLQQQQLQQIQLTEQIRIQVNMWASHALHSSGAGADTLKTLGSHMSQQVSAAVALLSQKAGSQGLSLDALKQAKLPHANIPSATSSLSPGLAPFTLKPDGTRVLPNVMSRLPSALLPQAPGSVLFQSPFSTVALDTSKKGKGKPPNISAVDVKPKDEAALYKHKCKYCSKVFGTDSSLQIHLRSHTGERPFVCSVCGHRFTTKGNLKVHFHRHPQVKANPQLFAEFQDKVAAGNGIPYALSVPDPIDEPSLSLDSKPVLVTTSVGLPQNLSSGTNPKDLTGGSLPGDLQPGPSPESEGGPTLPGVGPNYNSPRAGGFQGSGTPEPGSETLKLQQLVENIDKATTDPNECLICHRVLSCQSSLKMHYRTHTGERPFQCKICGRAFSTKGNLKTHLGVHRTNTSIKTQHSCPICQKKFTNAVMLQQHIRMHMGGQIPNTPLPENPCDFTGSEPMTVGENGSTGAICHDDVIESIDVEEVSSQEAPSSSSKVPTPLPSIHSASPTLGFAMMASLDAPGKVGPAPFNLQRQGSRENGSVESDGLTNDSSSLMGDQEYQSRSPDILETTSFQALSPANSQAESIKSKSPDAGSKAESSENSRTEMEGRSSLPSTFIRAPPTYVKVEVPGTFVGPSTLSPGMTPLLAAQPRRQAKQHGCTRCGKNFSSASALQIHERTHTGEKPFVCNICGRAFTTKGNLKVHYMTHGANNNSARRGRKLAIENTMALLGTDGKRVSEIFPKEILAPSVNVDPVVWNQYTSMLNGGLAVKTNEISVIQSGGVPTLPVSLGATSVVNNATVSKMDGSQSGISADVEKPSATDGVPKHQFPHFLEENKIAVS
Method: universal PBM
Molecule type: double-stranded DNA, one strand shown
Medium: in vitro
Tested at: 600 nM
Notes: 8-mer, flanks averaged, mean of replicates
Direction: higher = stronger binding
For `TACATCCA`, the E-score was 0.247.
With `AGAGGAGG` the E-score was -0.23.
The E-score of `AGTCCTAC` is reported as -0.084.
For `AGTGGCCA`, the E-score was -0.15.
The E-score of `AGCGCGTA` is reported as 0.00386.

Block 2
Target: FOSL1, bZIP domain (human)
Method: DHFR protein complementation
Medium: yeast
Notes: single substitutions, most at no-binding floor
Relative to: wild-type JUN-FOS pair
Direction: higher = stronger binding
Parent: JUN, bZIP domain (human); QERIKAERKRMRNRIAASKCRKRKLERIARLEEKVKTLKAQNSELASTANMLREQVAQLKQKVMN; partner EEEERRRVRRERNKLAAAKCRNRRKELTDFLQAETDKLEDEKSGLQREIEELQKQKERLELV
The binding fitness of `V35S` is reported as -1.19 natural log.
For `S47T`, the binding fitness was -0.397 natural log.
`T48K` gave a binding fitness of -0.242 natural log.
The binding fitness of `K36D` is reported as -0.481 natural log.

Block 3
Target: Histone acetyltransferase KAT6A, winged helix 1, GST fusion (KAT6A, Homo sapiens, UniProt Q92794, residues 1-85)
Method: protein binding microarray
Molecule type: double-stranded DNA, one strand shown
Medium: in vitro
Tested at: not given
Notes: 8-mer, flanks averaged, mean of 2 arrays, mostly near background
Relative to: not given
Direction: higher = stronger binding
Target sequence (chain): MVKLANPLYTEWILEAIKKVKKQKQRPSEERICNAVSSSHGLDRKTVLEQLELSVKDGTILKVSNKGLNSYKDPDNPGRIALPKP
`GTGACGCA` has an E-score of 0.0727.
The E-score of `CGTCGGCA` is reported as 0.434.
The E-score of `ACGCCCGT` is reported as 0.385.
The E-score of `ATAGAGTC` is reported as 0.0478.
`AATGCAGT` gave an E-score of -0.0216.
The E-score of `ATGTTGCA` is reported as -0.25.

Single results of other studies
`PhoQ, residues 284 288 289 292 302 303 GNNTDL` gave a fold induction of 1.17 (PhoP, residues 12 14 15 18 19 LHTVM (Escherichia coli, UniProt P23836); Sort-seq, measured: YFP reporter; E. coli; PhoQ-PhoP variant library, added: 10 µM Mg2+; relative to: high Mg2+ state, higher = stronger signaling).
